Experimental data from different studies.
Lines come from different studies, so protocols differ. Several values in a cell are separate wells, animals, samples, runs or records. ± gives the spread as reported. Values after ≈ are worked out from the molar mass of the structure shown.

For CN(CCCO)Cc1ccc(-c2noc(-c3ccc(OCC[18F])c(C(F)(F)F)c3)n2)cc1F, the brain uptake was 0.68 ± 0.12 %ID/g (Sprague-Dawley rat, male, brain; intravenous, 30 min).
O=C(Nc1cnccc1-c1ccc([18F])cc1)c1ccnc(NC(=O)C2CC2)c1 has an SUV of 0.7 (FVB/NJ mice (both sexes), stomach; intravenous, dose not given, 120 min).
Cc1ncsc1-c1ccc(CNC(=O)[C@@H]2C[C@@H](O)CN2C(=O)[C@@H](NC(=O)COCC(C)(COCCOCCOCCNC(=O)C[C@@H]2N=C(c3ccc(Cl)cc3)c3c(sc(C)c3C)-n3c(C)nnc32)COCCOCCOCCNC(=O)C[C@@H]2N=C(c3ccc(Cl)cc3)c3c(sc(C)c3C)-n3c(C)nnc32)C(C)(C)C)cc1 gave a concentration of 1530 ng/mL (male C57BL/6 mouse, plasma; subcutaneous, 5 mg/kg, 30 min, single dose).
With CC(=O)N([O-])CCCCCNC(=O)CCC(=O)N([O-])CCCCCNC(=O)CCC(=O)N([O-])CCCCCN.[89Zr+4] the intact complex was 85.5 ± 0.9% (radio-TLC; aqueous buffer; 5 d, pH 8.5, 37 °C, 89Zr-labelled complex, together with: DTPA 1000-fold excess).
CCC(C(=O)Nc1ccc(C(N)=O)c(F)c1)n1cc(OC)c(-c2cc(Cl)ccc2-n2cc(C(F)(F)F)nn2)cc1=O (stereo not drawn): “procedure-related adverse events” 6.7% (healthy male humans; 50 mg, IR formulation, fasted).
The tracer uptake of CN(Cc1ccccc1)C(=O)CN1CCN(CC(=O)[O-])CCN(Cc2cccc(C(=O)[O-])n2)CC1.[44Sc+3] is reported as 2 %ID/g (mouse, liver; intravenous, 1 h).
Under “main peak area remaining”, CC[C@H](C)[C@@H](C(=O)N[C@@H](CC(C)C)C(=O)N[C@@H](CO)C(=O)N[C@@H](CO)C(=O)N[C@H](C(=O)N[C@@H](CC(N)=O)C(=O)N[C@H](C(=O)NCC(=O)N[C@@H](CO)C(=O)N[C@@H](CC(N)=O)C(=O)N[C@H](C(=O)N1CCC[C@H]1C(N)=O)[C@@H](C)O)C(C)C)[C@@H](C)O)N(C)C(=O)[C@H](C)NC(=O)CN(C)C(=O)[C@H](Cc1ccccc1)NC(=O)[C@H](CO)NC(=O)[C@H](CO)NC(=O)[C@H](Cc1c[nH]cn1)NC(=O)[C@H](Cc1c[nH]cn1)NC(=O)[C@H](CC(C)C)NC(=O)[C@H](Cc1ccccc1)NC(=O)[C@H](CCC(=O)O)NC(=O)[C@H](C)NC(=O)[C@H](CC(C)C)NC(=O)[C@H](CCCNC(=N)N)NC(=O)[C@H](CCC(N)=O)NC(=O)[C@@H](NC(=O)[C@H](C)NC(=O)[C@@H]1CSSC[C@H](NC(=O)[C@H](CCCNC(=N)N)NC(=O)CC[C@H](NC(=O)CCCCCCCCCCCCCCCCCCC(=O)O)C(=O)O)C(=O)N[C@@H](CC(N)=O)C(=O)N[C@@H]([C@@H](C)O)C(=O)N[C@@H](C)C(=O)N[C@@H]([C@@H](C)O)C(=O)N1)[C@@H](C)O is recorded as 92% (RP-HPLC; water; 1.0 mg/mL, 7 days, pH 7.5, 40 °C).
The SUV of O=C(Nc1cnccc1-c1ccc([18F])nc1)c1ccnc(NC(=O)C2CC2)c1 is reported as 0.121 (FVB/NJ mice (both sexes), spleen; intravenous, dose not given, 120 min).
With CN(Cc1ccccc1)C(=O)CN1CCN(CC(=O)[O-])CCN(CC(=O)[O-])CC1.[18F-].[Sc+3] the tracer uptake was 2.53 %ID/g (mouse, liver; intravenous, 1 h).
Cc1nn(-c2nc3c(F)cc(F)cc3s2)c(O)c1C(c1ccc(C(F)(F)F)cc1)c1c(C)nn(-c2nc3c(F)cc(F)cc3s2)c1O gave a plasma concentration of 1130 ng/mL and 963 ng/mL (ICR mouse; intraperitoneal, 10 mg/kg, 8.00 h).
For CC[C@H](C)[C@@H]1NC(=O)[C@H](Cc2ccc(O)cc2)NC(=O)CCCSC[C@@H](C(=O)N(CC(=O)N[C@@H](CC(C)C)C(=O)NCC(N)=O)Cc2ccc(F)cc2)NC(=O)[C@H](CC(N)=O)NC(=O)[C@H](CCC(N)=O)NC1=O, “severe adverse events” read 0% (human; intranasal, 50 µg repeated doses).
With C=CC(=O)Nc1cc(Nc2nccc(-c3c[nH]c4ccccc34)n2)c(OC)cc1N(C)CCN(C)C the recovery was 73.6% (storage stability; human dried blood spot; 10 d, on ice, MQC level).
N#Cc1cccc(-c2ccc3ncc(-c4cc(F)cc(F)c4)c(N4CCC(N)CC4)c3c2)c1OC1OC(C(=O)O)C(O)C(O)C1O (stereo not drawn) gave a radioactivity recovered of 20.4% (healthy male, faeces; oral, 20 mg, 120 h, 14C-paltusotine dosed; relative to: dose).
For Cc1nc(N)nc2c1C(=O)N[C@@H](c1ccc(F)cc1-c1cccc(O[11CH3])n1)C2, the SUV was 6.2 ± 0.4 (ex vivo biodistribution; mice, MDA-MB-231 subcutaneous xenograft, spleen; 60 min post-injection, baseline, vehicle pre-treatment).
For COC1C=COC2(C)Oc3c(C)c(O)c4c(c3C2=O)C2=NC3(CCN(CC(C)C)CC3)NC2=C(NC(=O)C(C)=CC=CC(C)C(O)C(C)C(O)C(C)C(OC(=O)Nc2cccnn2)C1C)C4=O (stereo not drawn), “elimination rate constant” read 7.78e-05 s⁻¹ (CD-1 mouse female, plasma; intravenous, 5 mg/kg).
With CC(C)C[C@@H]1NC(=O)[C@H](C(C)C)NC(=O)[C@H](Cc2c[nH]c3ccccc23)NC(=O)[C@@H]2CSSC[C@H](NC(=O)[C@H](Cc3ccc(O)cc3)NC(=O)[C@H](C(C)C)NC(=O)[C@H](CCCNC(=N)N)NC(=O)CNC(=O)[C@H]3CCCN3C1=O)C(=O)N[C@@H](CCC(N)=O)C(=O)N1CCC[C@H]1C(=O)NCC(=O)N[C@@H](Cc1c[nH]c3ccccc13)C(=O)N2 the half-life was 10.6 h (chemical stability; simulated intestinal fluid; pH 6.5).
For COc1ccc2c(c1)C(C)(C)C(/C=C/C1=C(Oc3ccc(C(=O)NCCCCOc4cc(CN(Cc5ccccn5)Cc5ccccn5)cc(CN(Cc5ccccn5)Cc5ccccn5)c4)cc3)C(=C/C=C3/N(CCCCS(=O)(=O)[O-])c4ccc(OC)cc4C3(C)C)CCC1)=[N+]2CCCCS(=O)(=O)[O-].O=[N+]([O-])[O-].O=[N+]([O-])[O-].[99Tc+].[C-]#[O+].[C-]#[O+].[C-]#[O+].[Zn+2], the tracer uptake was 0.33 %ID/g (mouse, muscle; 12 h).
With CC(C)c1cnc(-c2cc(Cl)ccc2F)cc1Nc1ccncc1C(=O)NC(CO)CO the unbound Cmax was 127 nM (female C57BL/6 mice, plasma; oral, 30 mg/kg twice daily, day 1, MC-38 tumour-bearing).
For CCC(CC)n1c(Cc2cccs2)nc2cc(C(=O)N[C@@H](CC(=O)O)c3ccccc3)ccc21, the bioavailability was 65.7% (male Sprague-Dawley rat, plasma; intraperitoneal, 10 mg/kg).
The intact complex of CN([O-])C(=O)CN1CCN(CC(=O)N(C)[O-])CCN(CC(=O)N(C)[O-])CC1.[89Zr+4] is reported as 100% (radio-TLC; human serum; 3 days, run 2).
O=C([O-])CN1CCN(CC(=O)[O-])CCN(Cc2cccc(C(=O)[O-])n2)CC1.[177Lu+3] gave a tracer uptake of 0.51 %ID/g (mouse, bone; intravenous, 1 h).
Nc1nnc(-c2ccccc2O)cc1N1CC2CCC(C1)N2c1ccnc(C#CCCN2CCCCCC2)c1 gave an unbound Cmax of 1.4 nM (mouse; oral, 10 mg/kg).
With CC[C@H](C)[C@H](NC(=O)[C@H](Cc1ccccc1)NC(=O)[C@H](CCC(=O)O)NC(=O)[C@H](CCCCN)NC(=O)[C@H](C)NC(=O)[C@H](C)NC(=O)[C@H](CCC(N)=O)NC(=O)CNC(=O)[C@H](CCC(=O)O)NC(=O)[C@H](CC(C)C)NC(=O)[C@H](Cc1ccc(O)cc1)NC(=O)[C@H](CO)NC(=O)[C@H](CO)NC(=O)[C@@H](NC(=O)[C@H](CC(=O)O)NC(=O)[C@H](CO)NC(=O)[C@@H](NC(=O)[C@H](Cc1ccccc1)NC(=O)[C@@H](NC(=O)CNC(=O)[C@H](CCC(=O)O)NC(=O)[C@H](C)NC(=O)[C@@H](N)Cc1c[nH]cn1)[C@@H](C)O)[C@@H](C)O)C(C)C)C(=O)N[C@@H](C)C(=O)N[C@@H](Cc1c[nH]c2ccccc12)C(=O)N[C@@H](CC(C)C)C(=O)N[C@H](C(=O)N[C@@H](CCCCN)C(=O)NCC(=O)N[C@@H](CCCNC(=N)N)C(N)=O)C(C)C the serum stability was under 24 h (human serum; 37 °C).
The tumour-to-muscle ratio of COc1cccc(OC)c1-c1cc(C(=O)NC2(C(=O)O)C3CC4CC(C3)CC2C4)nn1-c1ccc(C(=O)N(C)CCOCCN(C)C(=O)[C@H](CCCCNC(=O)[C@H](CC(C)C)NC(=O)C2OC2C(=O)O)NC(=O)CN2CCN(CC(=O)[O-])CCN(CC(=O)[O-])CCN(CC(=O)[O-])CC2)cc1C(C)C.[177Lu+3] (mixture of isomers) is reported as 4.59 (mouse, HT-29 xenograft; 24 h post injection, biodistribution; relative to: tumour over muscle uptake).
OC1(C(F)(F)F)CCN(c2nc(Nc3ccnc(C(F)(F)F)c3)nc(-c3cccc(C(F)(F)F)n3)n2)C1 (stereo not drawn) gave an AUC(0-t) of 40300 ± 7160 ng·h/mL (Sprague-Dawley rat, both sexes, plasma; oral gavage, 20 mg/kg).
CCCCN1C(=O)c2cccc3c(NCCCCCN4CCOCC4)ccc(c23)C1=O: “fluorescence quantum yield” 1.09 (chloroform).
CN1CCC[C@]1(C)/C=C/S(=O)(=O)NC(=O)Nc1c2c(cc3c1CCC3)CCC2 — result for “subjects with adverse event”: 0% (measured: respiratory, thoracic, mediastinal disorders; human; oral, 100 mg twice daily, 14 days, multiple ascending dose).
For COc1cccc(OC)c1-c1cc(C(=O)NC2(C(=O)O)C3CC4CC(C3)CC2C4)nn1-c1ccc(C(=O)NCCNC(=O)[C@H](CCCCNC(=O)[C@H](CC(C)C)NC(=O)C2OC2C(=O)O)NC(=O)CN2CCN(CC(=O)[O-])CCN(CC(=O)[O-])CCN(CC(=O)[O-])CC2)cc1C(C)C.[177Lu+3] (mixture of isomers), the tissue uptake was 0.188 %ID/g (mouse, HT-29 xenograft, brain; 4 h post injection).
CC(C(=O)O)n1nc(Cn2cc3cc(OCC[18F])c(Cl)cc3n2)c2ccccc2c1=O (racemic) gave a tracer uptake of 0.25 %ID/g (rat, lung; 2 h).
N#C[C@@H]1CCCN1C(=O)CNC(=O)c1ccnc2ccc(OCCCN3CCN(C(=O)CCc4ccc(O)c(CN5CCN6CC(=O)[O][Al-]([18F])([O]C(=O)C5)[O]c5ccc(CCC(=O)N7CCN(CCCOc8ccc9nccc(C(=O)NCC(=O)N%10CCC[C@H]%10C#N)c9c8)CC7)cc5C6)c4)CC3)cc12 (stereo partly drawn) gave a tumour-to-organ ratio of 11.3 ± 0.48 (BALB/c nude mice, U-87 MG tumour; 120 min post-injection; relative to: tumour over blood).
O=S1(=O)CC2CCCCC2CS1 (stereo not drawn) gave a solubility of 43.1 mM (≈ 8890 µg/mL) (phase solubility, NMR; water; 25 °C, together with: hydroxypropyl-β-cyclodextrin 399 mM).
With C=C(NC(=O)c1csc(-c2nc3c(cc2O)-c2nc(cs2)C(=O)NC(C(C)O)C(=O)NC(=C(C)OC)c2nc(cs2)C(=O)NC2c4nc(cs4)C(=O)NC(COC(=O)c4c5c6c(cccc6n4O)COC(=O)C(OC4CC(C)(O)C(N(C)C)C(C)O4)C2OC5)c2nc-3cs2)n1)C(N)=O (stereo not drawn) the Cmax was 31.9 ng/mL (ICR mice, Streptococcus pneumoniae ATCC 49169 infected, immunocompromised, blood; intravenous, 2 mg/kg/day three times daily).
Under “empirical scaling factor”, C/C(N)=N/C(=N\S(=O)(=O)c1ccc(C(F)(F)F)cc1)N1C[C@H](c2ccccc2)C(c2ccc(Cl)cc2)=N1 is recorded as 29 (rat; relative to: in vivo over in vitro CLint).
CN(Cc1ccccc1)C(=O)CN1CCN(CC(=O)[O-])CCN(CC(=O)N(C)Cc2ccccc2)CC1.[18F-].[Sc+3] gave a tracer uptake of 0.15 %ID/g (mouse, spleen; intravenous, 1 h).
COc1cnc2cccc(N3CCc4c(cc(Cn5ccnc5)cc4-c4cn(C)nc4C(F)(F)F)C3=O)c2c1 has an MRT(0-inf) of 1.4 h (male CD-1 mouse, plasma; oral, 10 mg/kg).
For O=C([O-])CN1CCN(CC(=O)[O-])CCN(CC(=O)[O-])CC1.[44Sc+3], the tracer uptake was 0.07 %ID/g (mouse, muscle; intravenous, 1 h).
CC(C)(O)c1ccc(N2Cc3c(ccnc3-c3ccc(F)cc3OCC(F)(F)F)C2=O)cc1 gave a concentration of 910 ng/mL (male C57BL/6 mouse, plasma; oral, 3 mg/kg, 6 h).
With CN(Cc1ccccc1)C(=O)CN1CCN(CC(=O)N(C)Cc2ccccc2)CCN(Cc2cccc(C(=O)[O-])n2)CC1.[44Sc+3] the tracer uptake was 0.69 %ID/g (mouse, spleen; intravenous, 1 h).
For C=C[C@]1(C)C[C@@H](OC(=O)CSc2ccc(NC(=O)c3ccco3)cc2)[C@]2(C)[C@H](C)CC[C@]3(CCC(=O)[C@H]32)[C@@H](C)[C@@H]1O, the plasma concentration was 6380 ng/mL and 6800 ng/mL and 10200 ng/mL and 8640 ng/mL and 6580 ng/mL and 6450 ng/mL and 6420 ng/mL and 9120 ng/mL (Mycoplasma gallisepticum-infected chickens, plasma; intramuscular, 80 mg/kg, 0.25 h).

Repeated from above:
The SUV of O=C(Nc1cnccc1-c1ccc([18F])nc1)c1ccnc(NC(=O)C2CC2)c1 is reported as 0.121 (FVB/NJ mice (both sexes), spleen; intravenous, dose not given, 120 min).
With CN(Cc1ccccc1)C(=O)CN1CCN(CC(=O)[O-])CCN(CC(=O)[O-])CC1.[18F-].[Sc+3] the tracer uptake was 2.53 %ID/g (mouse, liver; intravenous, 1 h).
Cc1nn(-c2nc3c(F)cc(F)cc3s2)c(O)c1C(c1ccc(C(F)(F)F)cc1)c1c(C)nn(-c2nc3c(F)cc(F)cc3s2)c1O gave a plasma concentration of 1130 ng/mL and 963 ng/mL (ICR mouse; intraperitoneal, 10 mg/kg, 8.00 h).
For CC[C@H](C)[C@@H]1NC(=O)[C@H](Cc2ccc(O)cc2)NC(=O)CCCSC[C@@H](C(=O)N(CC(=O)N[C@@H](CC(C)C)C(=O)NCC(N)=O)Cc2ccc(F)cc2)NC(=O)[C@H](CC(N)=O)NC(=O)[C@H](CCC(N)=O)NC1=O, “severe adverse events” read 0% (human; intranasal, 50 µg repeated doses).
